Measurements gathered from unrelated publications.
Numbered parts are unrelated; each lists some results of a single study.

Series 1 — method: RNA Bind-n-Seq; form: RNA; sample: in vitro; tested at: 200 nM; notes: whole 134-nt RNA, ends assumed; together with: 150 mM KCl; baseline: input library; reading: higher = stronger binding; measurement: log2 enrichment
Target: Ras GTPase-activating protein-binding protein 1, full length (G3BP1, Homo sapiens, UniProt Q13283)
Chain of UniProt Q13283 (whole entry, looked up): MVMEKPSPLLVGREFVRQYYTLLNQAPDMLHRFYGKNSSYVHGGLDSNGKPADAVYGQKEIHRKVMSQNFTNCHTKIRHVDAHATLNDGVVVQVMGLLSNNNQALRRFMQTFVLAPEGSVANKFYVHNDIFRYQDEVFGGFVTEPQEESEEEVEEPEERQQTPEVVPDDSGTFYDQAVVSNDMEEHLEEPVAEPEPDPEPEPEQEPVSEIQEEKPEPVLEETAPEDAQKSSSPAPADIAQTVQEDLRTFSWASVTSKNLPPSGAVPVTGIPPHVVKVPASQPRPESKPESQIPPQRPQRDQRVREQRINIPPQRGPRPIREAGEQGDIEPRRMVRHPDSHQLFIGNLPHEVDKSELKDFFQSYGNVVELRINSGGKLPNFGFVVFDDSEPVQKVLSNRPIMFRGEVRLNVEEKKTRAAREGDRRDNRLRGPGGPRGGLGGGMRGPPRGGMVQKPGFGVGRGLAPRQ
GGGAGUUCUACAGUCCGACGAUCGUCCUGUGCUACACAUCGUAUGUACCGAAUCGGCCCCCGGGGCCCCCGGCCCCCGGGGAAAGUAUUAUGUUACGCCGUUCGGAUCUGCACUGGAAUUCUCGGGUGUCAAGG: -0.731
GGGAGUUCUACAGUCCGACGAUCGUCCUGUGCUACACAUCGUAUGUACCGAAUCGGGUUUUUUGGGUUUUUUGGUUUUUUGGAAAGUAUUAUGUUACGCCGUUCGGAUCUGCAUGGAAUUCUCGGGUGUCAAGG: -1.04
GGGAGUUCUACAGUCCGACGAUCCACAGACAACACGCACCCACACAGACACAGAGGGAAGGGGUUGGGAUGGGGACAGGGUGCACAGCAGGGAAAGGUAGGACCCCAGCCCCUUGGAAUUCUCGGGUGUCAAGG: 1.75
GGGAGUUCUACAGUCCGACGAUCAAGUCCUGUGCUACACAUCGUAUGUACCGAAUCAAACCCCCAAAUUUAAAUUUAAAAAAGUAUUAUGUUACGCCGUUCGGAUCUGCACUUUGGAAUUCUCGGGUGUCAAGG: -0.0286
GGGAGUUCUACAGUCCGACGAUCAGUCCUGUGCUACACAUCGUAUGUACCGAAUCGGAAAAAGGGAAAAAGGAAAAAGGGAAAGUAUUAUGUUACGCCGUUCGGAUCUGCACUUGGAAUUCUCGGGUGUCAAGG: -1.18
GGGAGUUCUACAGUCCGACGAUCUGGCCCUGGUGGCAUGCGGGGAGGAAGAGGUGGCCUCAAGGAUCGUGGUGGUCCCGGUGGAAUGUUCAGAGGUGGCCGUGGUGGAGACAGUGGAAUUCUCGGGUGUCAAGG: 0.372
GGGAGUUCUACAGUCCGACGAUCCCUGUGCUACACAUCGUAUGUACCGAAUCGGGGAGGGGAAAAAAAGGGGAAAAAAAGGGGAAAGUAUUAUGUUACGCCGUUCGGAUCUGCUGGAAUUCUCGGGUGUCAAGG: 0.0948
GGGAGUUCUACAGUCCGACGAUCUGCCUGCUCCGGGCCCCGUGCUGGCGCCUACGCACCUGCAGACAGAGCUGGUGCUGAGGUGCCAGAAGGAGACCGACUGUGACCUCUGUCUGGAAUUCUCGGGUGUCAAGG: -1.16
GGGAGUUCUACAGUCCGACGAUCUGGGAGGUGGAUUUUGUUUAUUUUUUUAGCUCAUUUCUAGGGGUGGGAAUUUUUUUUUAAUAUGUGUCAUGAAUAAAGUUGUUUUUGAAAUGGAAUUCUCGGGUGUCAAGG: -0.0758
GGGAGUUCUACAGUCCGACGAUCAGUCCUGUGCUACACAUCGUAUGUACCGAAUCAAACCCCCAAAUUUAAAUUUUUAAAAAAGUAUUAUGUUACGCCGUUCGGAUCUGCACUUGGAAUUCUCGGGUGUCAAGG: -0.186
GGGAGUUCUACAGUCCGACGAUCUGGGAGGUGGAUUUUGUUUAUUUUUUUUGCUCAUUUCCAGGGGUGGGAAUUUUUUUUUAAUAUGUGUCAUGAAUAAAGUUGUUUUUGAAAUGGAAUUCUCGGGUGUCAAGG: 0.283
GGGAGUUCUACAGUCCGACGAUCAAGUCCUGUGCUACACAUCGUAUGUACCGAAUCGGGGCCCCGGCCCCGGCCCCGGGGAAAGUAUUAUGUUACGCCGUUCGGAUCUGCACUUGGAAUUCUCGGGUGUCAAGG: -1.03
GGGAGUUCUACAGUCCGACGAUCCACAGACAACACGCACCCACACAGACACAGAGGGAAAAGGUUGGGAUGGGGACAGGGUGCACAGCAGGGCGGGGUAGGACCCCAGCCCCUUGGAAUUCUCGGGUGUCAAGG: 1.58
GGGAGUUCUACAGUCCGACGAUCUCCUGUGCUACACAUCGUAUGUACCGAAUCGGGAAAAAGGGAAAAAGGGGAAAAAGGGGAAAGUAUUAUGUUACGCCGUUCGGAUCUGCAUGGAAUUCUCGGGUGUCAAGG: 0.143

Series 2 — method: protein binding microarray; form: double-stranded DNA, one strand shown; sample: in vitro; tested at: not given; baseline: not given; reading: higher = stronger binding; measurement: E-score
Target: Histone acetyltransferase KAT6A, both winged helices, GST fusion (KAT6A, Homo sapiens, UniProt Q92794, residues 1-181)
Notes: 8-mer, flanks averaged, mean of 2 arrays, mostly near background
Residues (chain): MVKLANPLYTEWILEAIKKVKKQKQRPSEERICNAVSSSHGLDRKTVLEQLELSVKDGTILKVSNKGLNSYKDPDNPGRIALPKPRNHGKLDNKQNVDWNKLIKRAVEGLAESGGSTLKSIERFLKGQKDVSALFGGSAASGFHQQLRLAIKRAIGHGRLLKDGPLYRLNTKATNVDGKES
GGGAAACA: 0.0802
GTGGTCAA: -0.241
AAACTATC: -0.00663
CAATGAGA: -0.209
CCGTGGAA: 0.23
CCAGAAGC: -0.11
GGAAAATA: 0.0108
GCCGCTCC: 0.277
ACTCGCAA: -0.0197
CATTGGGA: -0.253

Series 3 — method: universal PBM; form: double-stranded DNA, one strand shown; sample: in vitro; tested at: not given; reading: higher = stronger binding; measurement: E-score
Target: Sal-like protein 4, full length isoform B (SALL4, Homo sapiens, UniProt Q9UJQ4-2, residues 1-616)
Notes: 8-mer, flanks averaged, mean of replicates
CCCCTGGC: -0.288
AATAGAAA: 0.212
ACGTGTGA: 0.012
AACACTCG: 0.0108
CACTATAA: 0.21
TAACGCGA: 0.0102
AAATCCCT: -0.0338
AAGTGCCA: -0.0208
GACAGGAA: 0.00376
CCATTACG: -0.0981
CGTTATCA: 0.222
AGAGAAGA: 0.0899
GTGTGTCA: 0.13

Further values, each from its own experiment
PhoQ, residues 284 288 289 292 302 303 ALASRC — fold induction (PhoP, residues 12 14 15 18 19 LHATL (Escherichia coli, UniProt P23836); Sort-seq, measured: YFP reporter; E. coli; PhoQ-PhoP variant library, together with: 10 µM Mg2+; baseline: high Mg2+ state, higher = stronger signaling): 15.9

Some of these lines once more (series 3):
ACGTGTGA: 0.012
AACACTCG: 0.0108
CACTATAA: 0.21
TAACGCGA: 0.0102
